Published values from different studies.
Protocols differ between the studies behind these lines.
Organism: Staphylococcus aureus

SMILES | assay | test system | conditions | scale | MIC
CC[C@H](C)[C@H](NC(=O)[C@@H](NC(=O)CN)C(C)C)C(=O)N[C@@H](Cc1ccccc1)C(=O)N[C@@H](CC(N)=O)C(=O)N[C@@H](C)C(=O)N[C@@H](CC(C)C)C(=O)N[C@@H](CCCCN)C(=O)NCC(=O)N[C@H](C(=O)N[C@@H](C)C(=O)N[C@@H](CCCCN)C(=O)N[C@H](C(=O)N[C@H](C(=O)N[C@@H](C)C(=O)N[C@@H](C)C(=O)N[C@@H](CCC(N)=O)C(=O)N[C@@H](CC(C)C)C(=O)N[C@@H](CC(C)C)C(=O)N[C@@H](CCCCN)C(=O)N[C@@H](CCCCN)C(=O)N[C@@H](C)C(=O)N[C@@H](CCCNC(=N)N)C(=O)N[C@H]1CSSC[C@@H](C(=O)O)NC(=O)[C@H](CO)NC(=O)[C@H](CCCCN)NC(=O)[C@H](CC(=O)O)NC(=O)[C@H](CC(C)C)NC(=O)[C@H](CCCCN)NC1=O)C(C)C)[C@@H](C)O)C(C)C | – | NCTC 10788, PBS | – | – | 2 µM
CCO[C@H]1[C@H](O)[C@@H](N)[C@@H](O[C@H]2[C@H](O[C@@H]3O[C@H](CO)[C@@H](O[C@H]4O[C@@H](CN)[C@@H](O)[C@H](O)[C@H]4N)[C@H]3O)[C@@H](O)[C@H](N)C[C@@H]2N)O[C@@H]1CO | broth microdilution | MRSA isolate AG 044 | – | – | 8 to 16 µg/mL
CC(C)C[C@H](NC(=O)[C@H](CC(C)C)NC(=O)[C@H](CCCCN)NC(=O)[C@H](CC(C)C)NC(=O)[C@H](CC(C)C)NC(=O)[C@H](CCCCN)NC(=O)[C@H](CCCCN)NC(=O)[C@H](CC(C)C)NC(=O)[C@H](CC(C)C)NC(=O)[C@H](CCCCN)NC(=O)[C@H](CCCCN)NC(=O)[C@H](CC(C)C)NC(=O)[C@H](CC(C)C)NC(=O)[C@H](CCCCN)NC(=O)[C@@H](N)CC(C)C)C(N)=O | – | MRSA AMC 201, RPMI medium | 24 h, 37 °C | – | 3.7 µM
CC[C@H](C)[C@H](NC(=O)[C@H](CCCN)NC(=O)[C@H](CC(N)=O)NC(=O)[C@H](Cc1c[nH]c2ccccc12)NC(=O)[C@H](Cc1ccccc1)NC(=O)[C@H](CCCN)NC(=O)[C@H](CCCCNC(=N)N)NC(=O)[C@H](CC(C)C)NC(=O)[C@H](Cc1c[nH]c2ccccc12)NC(=O)[C@H](CCCN)NC(=O)[C@H](CCCCNC(=N)N)NC(=O)[C@H](CC(C)C)NC(=O)CNC(C)=O)C(=O)N[C@@H](CCCN)C(=O)N[C@@H](CCCCNC(=N)N)C(N)=O | broth microdilution | multidrug-resistant | – | – | 3.12 µM
COc1ccc2ccc3c(c2c1)C=[N+]1C2CCCCC2[N+]2=Cc4ccccc4[O][Au-]21[O]3.F[P-](F)(F)(F)(F)F (centres unmarked) | bacterial growth, broth microdilution | vancomycin-intermediate | 24 h | – | 20 µM
NCCCC[C@@H]1NC(=O)[C@@H](Cc2c[nH]c3ccccc23)NC(=O)[C@H](Cc2c[nH]c3ccccc23)NC(=O)[C@@H](N)CSCc2ccc(cc2)CSC[C@@H](C(N)=O)NC(=O)[C@@H](Cc2c[nH]c3ccccc23)NC(=O)[C@H](Cc2c[nH]c3ccccc23)NC(=O)[C@@H](Cc2c[nH]c3ccccc23)NC(=O)[C@H](CCCCN)NC(=O)[C@@H](CCCCN)NC(=O)[C@H](CCCCN)NC(=O)[C@@H](CCCCN)NC1=O | – | Newman MSSA | – | – | 32 µg/mL
CC[C@H](C)[C@H](NC(=O)CNC(=O)[C@H](CC(N)=O)NC(=O)[C@H](CCCNC(=N)N)NC(=O)[C@H](CS)NC(=O)[C@H](CCCNC(=N)N)NC(=O)CNC(=O)CNC(=O)[C@H](CCCCN)NC(=O)[C@H](Cc1ccc(O)cc1)NC(=O)[C@H](CCCNC(=N)N)NC(=O)[C@H](CCCCN)NC(=O)[C@@H](NC(=O)[C@H](CC(C)C)NC(=O)[C@H](CS)NC(=O)[C@H](Cc1c[nH]cn1)NC(=O)[C@H](C)NC(=O)[C@H](C)NC(=O)[C@H](CS)NC(=O)[C@H](C)NC(=O)[C@H](CO)NC(=O)[C@H](Cc1c[nH]cn1)NC(=O)[C@H](CC(N)=O)NC(=O)[C@H](CC(C)C)NC(=O)[C@H](CO)NC(=O)CNC(=O)[C@H](Cc1c[nH]c2ccccc12)NC(=O)[C@@H]1CCCN1C(=O)[C@@H](NC(=O)[C@H](CO)NC(=O)[C@H](C)NC(=O)[C@H](CO)NC(=O)[C@H](CC(C)C)NC(=O)[C@H](CC(C)C)NC(=O)[C@H](CC(=O)O)NC(=O)[C@H](CS)NC(=O)[C@@H](NC(=O)[C@H](C)N)[C@@H](C)O)[C@@H](C)O)[C@@H](C)O)C(=O)N[C@@H](CS)C(=O)N[C@@H](CCCNC(=N)N)C(=O)N[C@@H](CS)C(=O)N[C@@H](CCCNC(=N)N)C(=O)N[C@@H](CCCNC(=N)N)C(N)=O | – | ATCC 29213 | – | – | 35 µg/mL
CCCCCCCCCCCCC[C@@H](O)Cc1cc(O)cc(O)c1 | microbial growth, broth dilution | USA300 | drug-resistant strain | – | 32 µg/mL
CN[C@@H]1[C@H](O)[C@H](NC)[C@H]2O[C@]3(O)[C@H](O[C@@H]2[C@H]1O)O[C@H](C)C[C@]3(O)CNCc1ccc(F)cc1 | – | MSSA ATCC 29213 | – | – | > 200 µg/mL
CCCCCCCCCCCC(=O)NCCCC[C@H](N)C(=O)N[C@@H](CCCNC(=N)N)C(=O)N[C@@H](CCCNC(=N)N)C(=O)N[C@@H](CCCNC(=N)N)C(=O)N[C@@H](CCCNC(=N)N)C(=O)N[C@@H](CCCNC(=N)N)C(=O)O | broth microdilution | MRSA ATCC 43300 | 37 °C | – | 69.3 µg/mL
COc1c(CC=C(C)C)c(O)cc2c1[C@@H]1Oc3c(ccc(O)c3CC=C(C)C)[C@@H]1CO2 | – | – | – | – | 128 µg/mL
CCS(=O)(=O)[C@H]1[C@H](O)[C@@H](N)[C@@H](O[C@H]2[C@H](O[C@@H]3O[C@H](CO)[C@@H](O[C@H]4O[C@@H](CN)[C@@H](O)[C@H](O)[C@H]4N)[C@H]3O)[C@@H](O)[C@H](N)C[C@@H]2N)O[C@@H]1CO | – | methicillin-resistant, AAC(6') ANT(4',4'') APH(3') | – | – | > 64 µg/mL
CC(C)[C@H](NC(=O)[C@H](CCCNC(=N)N)NC(=O)[C@H](CCCNC(=N)N)NC(=O)[C@@H](NC(=O)[C@H](C)NC(=O)[C@H](CC(N)=O)NC(=O)[C@H](CCCNC(=N)N)NC(=O)[C@@H](NC(=O)[C@H](CCCNC(=N)N)NC(=O)[C@H](CCCNC(=N)N)NC(=O)[C@@H](NC(=O)[C@@H](NC(=O)[C@H](CCCNC(=N)N)NC(=O)[C@H](CCCNC(=N)N)NC(=O)[C@H](Cc1c[nH]c2ccccc12)NC(=O)[C@H](Cc1c[nH]c2ccccc12)NC(=O)CN)[C@@H](C)O)C(C)C)C(C)C)C(C)C)C(=O)O | bacterial growth | MRSA, ESBL-positive | 18 h | – | 128 µg/mL
CC[C@H](C)[C@H](N)C1=N[C@H](C(=O)N[C@@H](CC(C)C)C(=O)N[C@H](CCC(=O)O)C(=O)N[C@H](C(=O)N[C@H]2CCCCNC(=O)[C@H](CC(N)=O)NC(=O)[C@@H](CC(=O)O)NC(=O)[C@H](Cc3c[nH]cn3)NC(=O)[C@@H](CC(C)C)NC(=O)[C@H]([C@@H](C)CC)NC(=O)[C@@H](CCCN)NC2=O)[C@@H](C)CC)CS1 | broth microdilution | ATCC 29213, LB medium | 18 h, 37 °C, together with: ZnSO4 0.3 mM | – | 4 µg/mL
CC(C)[C@H](NC(=O)[C@@H](NC(=O)[C@H](CCCCN)NC(=O)CNC(=O)[C@@H](NC(=O)[C@@H](NC(=O)[C@H](CO)NC(=O)[C@@H](NC(=O)[C@@H](NC(=O)[C@@H]1CCCN1C(=O)[C@@H](NC(=O)[C@@H](NC(=O)CN)C(C)C)C(C)C)C(C)C)C(C)C)C(C)C)C(C)C)C(C)C)C(N)=O | broth microdilution | USA300 MRSA | – | – | > 100 µM
CCCCCCCCCCCCCC(=O)N[C@H](CCN)C(=O)N[C@@H]1C(=O)N[C@@H](CCN)C(=O)N[C@@H](CC(C)C)C(=O)N[C@@H](CCN)C(=O)N[C@H](Cc2ccccc2)C(=O)N[C@@H](CC(C)C)C(=O)N[C@@H](CCN)C(=O)N[C@H](CCN)C(=O)N[C@@H](C(C)C)C(=O)N[C@@H](CC(=O)O)C(=O)O[C@@H]1C | broth microdilution | ATCC BAA-44, methicillin-resistant MDR | – | – | 2 µg/mL
CCCCc1ccc(N2C(=O)/C(=N\NC(=N)N)c3cc([N+](=O)[O-])ccc32)cc1 | broth microdilution | BAA41 MRSA | 18 h, 37 °C | – | > 192 µg/mL
CC(=O)[O-].O.S=c1[nH]c2ccccc2[nH]1.S=c1[nH]c2ccccc2[nH]1.[Ag+].c1ccc(P(c2ccccc2)c2ccccc2)cc1.c1ccc(P(c2ccccc2)c2ccccc2)cc1 | agar dilution | methicillin-resistant | 24 h, 37 °C | – | 7 µg/mL
CC(C)(C)c1ccc(COc2cc3c(=O)c(C(=O)NCCNCCO)cn(Cc4ccccc4)c3cc2Cl)cc1 | – | ATCC 43300 MRSA | – | ≥80% growth inhibition | < 0.25 µg/mL
c1ccc(CN2CCOCCOCCN(CCCCCCCCCCCCCCN3CCOCCOCCN(CCCCCCCCCCCCCCN4CCOCCOCCN(Cc5ccccc5)CCOCCOCC4)CCOCCOCC3)CCOCCOCC2)cc1 | checkerboard, measured: norfloxacin | 1199B | 500 nM, together with: norfloxacin | – | 0.5 µM
CC(C)CCCCCCCCC/C=C/C(=O)N[C@@H](CC(=O)O)C(=O)N[C@H]1CNC(=O)[C@@H]2CCCN2C(=O)[C@H](C(C)C)NC(=O)[C@@H](CN)NC(=O)CNC(=O)[C@H](CC(=O)O)NC(=O)CNC(=O)[C@H](CC(=O)O)NC(=O)CNC(=O)[C@H]2CCCCN2C1=O | – | MRSA USA300 | 16 h, 37 °C, together with: Ca2+ 10 mM | – | 8 µg/mL
CCCCc1ccc(-c2nc(C)c(C(C)=NNC(=N)N)s2)cc1 | – | VRS1 VRSA | – | – | 0.7 µg/mL
C=C(NC(=O)C(=C)NC(=O)c1csc(C2=NC3c4csc(n4)C4NC(=O)c5csc(n5)C(C(C)(O)C(C)O)NC(=O)C5CSC(=N5)C(=CC)NC(=O)C(C(C)O)NC(=O)c5csc(n5)C3(CC2)NC(=O)C(C)NC(=O)C(=C)NC(=O)C(C(C)CC)NC2C=Cc3c(C(C)O)cc(nc3C2O)C(=O)OC4C)n1)C(N)=O (centres unmarked) | broth microdilution | ATCC 10537 MRSA | 18 h, 37 °C | – | > 5 µg/mL

Some of these lines once more:
SMILES | assay | test system | conditions | scale | MIC
CCCCc1ccc(N2C(=O)/C(=N\NC(=N)N)c3cc([N+](=O)[O-])ccc32)cc1 | broth microdilution | BAA41 MRSA | 18 h, 37 °C | – | > 192 µg/mL
CCCCCCCCCCCCCC(=O)N[C@H](CCN)C(=O)N[C@@H]1C(=O)N[C@@H](CCN)C(=O)N[C@@H](CC(C)C)C(=O)N[C@@H](CCN)C(=O)N[C@H](Cc2ccccc2)C(=O)N[C@@H](CC(C)C)C(=O)N[C@@H](CCN)C(=O)N[C@H](CCN)C(=O)N[C@@H](C(C)C)C(=O)N[C@@H](CC(=O)O)C(=O)O[C@@H]1C | broth microdilution | ATCC BAA-44, methicillin-resistant MDR | – | – | 2 µg/mL
CC[C@H](C)[C@H](N)C1=N[C@H](C(=O)N[C@@H](CC(C)C)C(=O)N[C@H](CCC(=O)O)C(=O)N[C@H](C(=O)N[C@H]2CCCCNC(=O)[C@H](CC(N)=O)NC(=O)[C@@H](CC(=O)O)NC(=O)[C@H](Cc3c[nH]cn3)NC(=O)[C@@H](CC(C)C)NC(=O)[C@H]([C@@H](C)CC)NC(=O)[C@@H](CCCN)NC2=O)[C@@H](C)CC)CS1 | broth microdilution | ATCC 29213, LB medium | 18 h, 37 °C, together with: ZnSO4 0.3 mM | – | 4 µg/mL
